Assay results collected from several papers.
Each line is one published result; not all experiments were run side by side. ± marks the error that the study gave.
UniProt P22413, sequence (whole entry, looked up): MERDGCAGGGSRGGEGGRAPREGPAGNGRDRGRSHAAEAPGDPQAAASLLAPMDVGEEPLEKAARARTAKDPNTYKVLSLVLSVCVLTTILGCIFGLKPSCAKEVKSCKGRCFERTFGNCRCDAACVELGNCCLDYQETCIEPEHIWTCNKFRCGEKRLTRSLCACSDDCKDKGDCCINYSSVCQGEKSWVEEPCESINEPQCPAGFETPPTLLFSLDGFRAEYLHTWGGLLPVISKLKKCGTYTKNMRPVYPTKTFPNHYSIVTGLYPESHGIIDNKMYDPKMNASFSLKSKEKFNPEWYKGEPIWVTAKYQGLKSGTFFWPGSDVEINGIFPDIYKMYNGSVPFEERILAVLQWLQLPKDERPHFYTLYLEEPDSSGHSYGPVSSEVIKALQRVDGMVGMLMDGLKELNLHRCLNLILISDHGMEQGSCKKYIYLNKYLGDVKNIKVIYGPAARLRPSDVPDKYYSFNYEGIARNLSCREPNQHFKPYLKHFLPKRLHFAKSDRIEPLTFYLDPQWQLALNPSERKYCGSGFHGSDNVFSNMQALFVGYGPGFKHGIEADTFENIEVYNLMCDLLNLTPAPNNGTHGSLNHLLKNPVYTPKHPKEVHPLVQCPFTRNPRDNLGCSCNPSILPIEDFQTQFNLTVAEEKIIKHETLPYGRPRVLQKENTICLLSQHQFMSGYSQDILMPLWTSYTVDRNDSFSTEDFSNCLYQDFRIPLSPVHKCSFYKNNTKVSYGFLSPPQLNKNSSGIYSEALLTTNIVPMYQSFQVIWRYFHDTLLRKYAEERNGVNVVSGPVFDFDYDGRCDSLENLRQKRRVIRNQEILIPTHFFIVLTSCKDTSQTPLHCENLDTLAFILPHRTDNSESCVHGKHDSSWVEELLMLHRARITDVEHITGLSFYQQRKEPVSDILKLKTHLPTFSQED
UniProt Q4GZT4, sequence (whole entry, looked up): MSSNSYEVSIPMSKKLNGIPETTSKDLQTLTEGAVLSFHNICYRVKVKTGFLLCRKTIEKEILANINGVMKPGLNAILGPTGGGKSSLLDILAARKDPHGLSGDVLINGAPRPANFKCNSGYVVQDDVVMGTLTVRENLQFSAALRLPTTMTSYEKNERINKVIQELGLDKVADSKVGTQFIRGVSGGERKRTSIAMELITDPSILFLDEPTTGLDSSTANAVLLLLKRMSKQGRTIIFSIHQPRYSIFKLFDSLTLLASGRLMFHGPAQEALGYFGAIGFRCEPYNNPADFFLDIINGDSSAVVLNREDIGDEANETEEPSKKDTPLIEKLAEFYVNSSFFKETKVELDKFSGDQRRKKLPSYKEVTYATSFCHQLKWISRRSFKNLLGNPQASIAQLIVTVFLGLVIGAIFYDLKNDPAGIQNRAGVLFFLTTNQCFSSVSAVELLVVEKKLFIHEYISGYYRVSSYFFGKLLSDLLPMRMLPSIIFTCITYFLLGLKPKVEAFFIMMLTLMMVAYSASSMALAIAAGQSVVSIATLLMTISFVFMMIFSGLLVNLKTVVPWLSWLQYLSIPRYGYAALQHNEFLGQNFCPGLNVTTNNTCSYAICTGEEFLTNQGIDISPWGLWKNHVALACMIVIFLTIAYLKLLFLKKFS

c1csc(CNc2cc[nH]n2)c1  cells with structural aberrations (human peripheral blood lymphocytes (female); 1850 µg/mL, 4 h, repeat, with: without S9): 1.5%
O=C1c2ccccc2C(=O)N1CCCc1nc(-c2cccc([N+](=O)[O-])c2)no1  Kd (CDK2 (Homo sapiens, UniProt P24941); binding): > 100 µM
CNCc1ccc(-c2[nH]c3cc(F)cc4c3c2CCNC4=O)cc1  diarrhoea incidence (human patients; oral, 360 mg twice daily, all grades): 12.5%
Cc1cc(N)c2c(OCC(C)(C)C(=O)NC(C)C)cccc2n1  mean revertant colonies (Salmonella typhimurium; reverse mutation, plate incorporation; TA100; 500 µg/plate, without S9): 72 colonies/plate
COc1ncc(-c2nc3c(n2C(C)C)[C@H](c2ccc(Cl)cc2)N(c2cc(Cl)cn(C)c2=O)C3=O)c(OC)n1  geometric mean Cmax (human patients, plasma; oral, 45 mg, cycle 1 day 1, low-dose): 425 ng/mL
COc1ccccc1NC(=O)CSc1nnc(-c2ccccc2Cl)n1-c1ccccc1  Kd (Cyclin-dependent kinase 2, with cyclin A (CDK2, Homo sapiens, UniProt P24941)): > 100 µM
CN1C[C@@H]2C[C@H]1CN2c1cc2c(cc1F)c(=O)c(C(=O)O)cn2C1CC1  percent transported (Broad substrate specificity ATP-binding cassette transporter ABCG2 (ABCG2, Bos taurus, UniProt Q4GZT4); basolateral-to-apical transport, transepithelial transport; MDCK-II transduced with ABCG2, HBSS with HEPES; 10 µM, 4 h): 37.4 ± 3.32%
CC(C)Oc1c(NC(=O)c2ccc(NC(=O)[C@H](CC(N)=O)NC(=O)c3ccc(NC(=O)c4ccc(C#N)cc4)cc3)cc2)ccc(C(=O)Nc2ccc(C(=O)O)cc2)c1O  concentration (Escherichia coli ATCC 25922; neutropenic male CD-1 mice, lung; iv then sc, 67.5 mg/kg/day, 24 h after infection, thigh infection model): 18.6 ± 7.1 ng/mL
Nc1nc2c(ncn2[C@@H]2O[C@@H]3COP(=O)(O)O[C@@H]4[C@@H](O)[C@H](n5cnc6c(N)ncnc65)O[C@@H]4COP(=O)(O)O[C@@H]2[C@@H]3O)c(=O)[nH]1  stability time (ENPP1 (Homo sapiens, UniProt P22413); substrate; 100 µM): ≥ 8 h
Cc1cc(Nc2ccc(S(F)(F)(F)(F)F)cc2)n2nc(C(C)(F)F)nc2n1  patients with blurred vision (Plasmodium vivax; human Plasmodium vivax malaria patients; oral, 600 mg): 0%
CC(C)(C(=O)N1CCOc2c(C#N)cncc2C1)C(F)F  subjects with TEAE (measured: vascular disorders; healthy humans, both sexes; oral, 20 mg single dose): 0%
CCc1cc(C(=O)NC)c2nccc(N3CCc4c(cc(Cn5ccnc5)cc4-c4cn(C)nc4C(F)(F)F)C3=O)c2c1  mean corpuscular haemoglobin (Sprague Dawley rats; oral, 50 mg/kg once daily, 7 days): 20.4 ± 0.98 pg
CC[C@]1(C)C[C@@H](OC(=O)CSc2nnc(N)[nH]2)[C@]2(C)[C@H](C)CC[C@]3(CCC(=O)[C@H]32)[C@@H](C)[C@@H]1O  EC50 (pooled human hepatocyte co-culture; mRNA induction, measured: CYP2C8 mRNA; 48 h): 2.92 µM
CN1CCN(c2cnc3c(cc(C(=O)NCc4ccc(Cl)cc4)c(=O)n3CC(=O)N3CC(C)(F)C3)n2)C1=O  selectivity index (herpes simplex virus 2; cytopathic effect; G; baseline: CC50 over EC50): > 144

Some of these lines once more:
CCc1cc(C(=O)NC)c2nccc(N3CCc4c(cc(Cn5ccnc5)cc4-c4cn(C)nc4C(F)(F)F)C3=O)c2c1  mean corpuscular haemoglobin (Sprague Dawley rats; oral, 50 mg/kg once daily, 7 days): 20.4 ± 0.98 pg
